Measured values gathered from unrelated publications.
Protocols differ between the studies behind these lines. ± marks the error that the study gave. ≈ marks a conversion by molar mass, not a printed value.
Chain of UniProt P21729 (whole entry, looked up): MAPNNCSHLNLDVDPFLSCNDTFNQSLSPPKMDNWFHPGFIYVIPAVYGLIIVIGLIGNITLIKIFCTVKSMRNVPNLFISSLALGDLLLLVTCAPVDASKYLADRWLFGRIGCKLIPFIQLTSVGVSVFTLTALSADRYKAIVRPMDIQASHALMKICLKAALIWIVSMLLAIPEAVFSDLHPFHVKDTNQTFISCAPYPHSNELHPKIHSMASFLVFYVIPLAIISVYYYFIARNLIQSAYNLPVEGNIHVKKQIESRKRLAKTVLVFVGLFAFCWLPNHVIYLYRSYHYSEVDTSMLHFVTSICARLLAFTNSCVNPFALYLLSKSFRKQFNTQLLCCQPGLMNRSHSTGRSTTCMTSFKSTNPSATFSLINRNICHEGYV

| SMILES | tested on | assay | system | setting | quantity | value |
| --- | --- | --- | --- | --- | --- | --- |
| N=C(N)NCCC[C@@H]1NC(=O)[C@H](CC(=O)NC23CNCCNCC(N)(CNCCNC2)CNCCNC3)NC(=O)[C@@H](Cc2ccccc2)NC(=O)[C@H](CC(=O)O)NC(=O)CNC1=O [copper-64 labelled] |  |  | Nu/Nu mouse, male, tumour-bearing, lung | intravenous, 10 µCi, 24 h | tissue uptake | 0.63 ± 0.09 %ID/g |
| CSCC[C@H](NC(=O)[C@H](CC(C)C)NC(=O)[C@H](Cc1c[nH]cn1)NC(=O)CNC(=O)[C@@H](NC(=O)[C@H](C)NC(=O)[C@H](Cc1c[nH]c2ccccc12)NC(=O)[C@H](CCC(N)=O)NC(=O)CCCCCCCNC(=O)CCC(=O)Nc1ccc(CNC23CNCCNCC(N)(CNCCNC2)CNCCNC3)cc1)C(C)C)C(N)=O [copper-64 labelled] |  |  | female SCID mice, PC-3 xenograft, spleen | intravenous, 0.6 MBq, 1 h | tissue uptake | 1.23 ± 0.186 %ID/g |
| CCCCCCCCC(=O)NCc1ccc(O)c(OC)c1 | mAb 5-D8 | antibody binding, indirect competitive ELISA |  | added: coating antigen hapten 5-OVA | IC50 | 9.81 ng/mL (≈ 0.0334 µM) |
| C[C@H](NC(=O)[C@H](CCC(N)=O)NC(=O)[C@H](C)NC(=O)[C@H](CCCCN)NC(=O)[C@H](CCC(N)=O)NC(=O)[C@H](C)NC(=O)[C@H](CCCCN)NC(=O)[C@H](CCC(N)=O)NC(=O)[C@H](C)NC(=O)[C@H](CCC(N)=O)NC(=O)[C@H](CCCCN)NC(=O)[C@H](C)NC(=O)[C@H](CCC(N)=O)NC(=O)[C@H](CCCCN)NC(=O)[C@H](C)NC(=O)[C@H](CCC(N)=O)NC(=O)[C@H](C)NC(=O)[C@H](CCCCN)NC(=O)[C@H](CCC(N)=O)NC(=O)[C@H](C)NC(=O)[C@H](CCCCN)NC(=O)[C@H](CO)NC(=O)[C@H](Cc1ccc(O)cc1)NC(=O)CNC(=O)CNC(=O)CN)C(=O)N[C@@H](CCCCN)C(=O)N[C@@H](CCC(N)=O)C(=O)N[C@@H](C)C(=O)N[C@@H](CCCCN)C(=O)N[C@@H](CCC(N)=O)C(=O)O |  | binding, SPR two-state model | rVλ6Wil fibrils | 300 nM | ka2 | 0.0315 s⁻¹ |
| COc1cc(C(=O)NCCOCCOCCOCCNC(=O)c2ccc([18F])nc2)ccc1NC(=O)C1NC(CC(C)(C)C)C(C#N)(c2ccc(Cl)cc2F)C1c1cccc(Cl)c1F (stereo not drawn) | HepG2 tumour model |  | host not given, stomach | 2 h, tumour-bearing | tracer uptake | 1.72 %ID/g |
| CN[C@](C)(C[18F])C(=O)O | DU-145 tumour model |  | host not given, bone | 15 min, tumour-bearing | tracer uptake | 2.3 %ID/g |
| N=C(N)NCCC[C@@H]1NC(=O)[C@H](CCCCNC(=O)CNC(=O)CNC(=O)CNC(=O)CC[C@H](NC(=O)CCOCCOCCOCCOCCNC(=O)CC[C@H](NC(=O)CN2CCN(CC(=O)O)CCN(CC(=O)O)CCN(CC(=O)O)CC2)C(=O)NCCOCCOCCOCCOCCC(=O)N[C@@H](CCC(=O)NCC(=O)NCC(=O)NCC(=O)NCCCC[C@@H]2NC(=O)[C@@H](Cc3ccccc3)NC(=O)[C@H](CC(=O)O)NC(=O)CNC(=O)[C@H](CCCNC(=N)N)NC2=O)C(=O)NCC(=O)NCC(=O)NCC(=O)NCCCC[C@@H]2NC(=O)[C@@H](Cc3ccccc3)NC(=O)[C@H](CC(=O)O)NC(=O)CNC(=O)[C@H](CCCNC(=N)N)NC2=O)C(=O)NCC(=O)NCC(=O)NCC(=O)NCCCC[C@@H]2NC(=O)[C@@H](Cc3ccccc3)NC(=O)[C@H](CC(=O)O)NC(=O)CNC(=O)[C@H](CCCNC(=N)N)NC2=O)NC(=O)[C@@H](Cc2ccccc2)NC(=O)[C@H](CC(=O)O)NC(=O)CNC1=O [indium-111 labelled] |  |  | female athymic nude mice, eyes | intravenous, 3 µCi, 24 h, U-87 MG glioma xenograft | tissue uptake | 0.31 ± 0.01 %ID/g |
| CSCC[C@H](NC(=O)[C@H](CC(C)C)NC(=O)[C@H](Cc1c[nH]cn1)NC(=O)CNC(=O)[C@@H](NC(=O)[C@H](C)NC(=O)[C@H](Cc1c[nH]c2ccccc12)NC(=O)[C@H](CCC(N)=O)NC(=O)CCCCCNC(=O)CNC(=O)CNC(=O)CNC(=O)CSC(C)=O)C(C)C)C(N)=O [technetium-99m labelled] |  |  | healthy Swiss mouse, small intestine, contents removed | intravenous, 18.5 MBq, 240 min | tissue uptake | 0.38 ± 0.11 %ID/g |
| CCCC[C@H](NC(=O)CCCCCCCNC(=O)c1ccc(NN)nc1)C(=O)N[C@H]1CC(=O)NCCCC[C@@H](C(N)=O)NC(=O)[C@H](Cc2c[nH]c3ccccc23)NC(=O)[C@H](CCCNC(=N)N)NC(=O)[C@@H](Cc2ccccc2)NC(=O)[C@H](Cc2c[nH]cn2)NC1=O [technetium-99m labelled] |  |  | C57 mouse, B16/F1 melanoma, liver | 2 h, added: L-lysine 12 mg co-injected | tissue uptake | 1.22 ± 0.15 %ID/g |
| CSCC[C@H](NC(=O)[C@H](CC(C)C)NC(=O)[C@H](Cc1c[nH]cn1)NC(=O)CNC(=O)[C@@H](NC(=O)[C@H](C)NC(=O)[C@H](Cc1c[nH]c2ccccc12)NC(=O)[C@H](CCC(N)=O)NC(=O)CCCCNC(=O)CSCCSCCP(CO)CO)C(C)C)C(N)=O [technetium-99m labelled] |  |  | female CF-1 mouse, whole blood | intravenous, 1 h, blood volume as 6.5% body weight | tissue uptake | 1.9 ± 2.5 %ID |
| C[C@@H](O)[C@H](NC(=O)[C@@H]1CSSC[C@H](NC(=O)[C@@H](Cc2ccccc2)NC(=O)CN2CCCN3CCN(CCCN(CP(=O)(O)O)CC3)CC2)C(=O)N[C@@H](Cc2ccc(O)cc2)C(=O)N[C@H](Cc2c[nH]c3ccccc23)C(=O)N[C@@H](CCCCN)C(=O)N[C@@H]([C@@H](C)O)C(=O)N1)C(=O)O [copper-64 labelled] |  |  | Lewis rat, male, tumour-bearing, pancreas | injection, 4 h, added: Y3-TATE 200 µg co-injected | tissue uptake | 0.6 ± 0.04 %ID/g |
| N=C(N)NCCC[C@@H]1NC(=O)[C@H](CCCCNC(=O)CCOCCOCCOCCOCCNC(=O)CC[C@H](NC(=O)CCOCCOCCOCCOCCNC(=O)CC[C@H](NC(=O)CN2CCN(CC(=O)O)CCN(CC(=O)O)CCN(CC(=O)O)CC2)C(=O)NCCOCCOCCOCCOCCC(=O)N[C@@H](CCC(=O)NCCOCCOCCOCCOCCC(=O)NCCCC[C@@H]2NC(=O)[C@@H](Cc3ccccc3)NC(=O)[C@H](CC(=O)O)NC(=O)CNC(=O)[C@H](CCCNC(=N)N)NC2=O)C(=O)NCCOCCOCCOCCOCCC(=O)NCCCC[C@@H]2NC(=O)[C@@H](Cc3ccccc3)NC(=O)[C@H](CC(=O)O)NC(=O)CNC(=O)[C@H](CCCNC(=N)N)NC2=O)C(=O)NCCOCCOCCOCCOCCC(=O)NCCCC[C@@H]2NC(=O)[C@@H](Cc3ccccc3)NC(=O)[C@H](CC(=O)O)NC(=O)CNC(=O)[C@H](CCCNC(=N)N)NC2=O)NC(=O)[C@@H](Cc2ccccc2)NC(=O)[C@H](CC(=O)O)NC(=O)CNC1=O [indium-111 labelled] |  |  | female athymic nude mice, spleen | intravenous, 3 µCi, 1 h, U-87 MG glioma xenograft | tissue uptake | 2.1 %ID/g |
| CCCNC(=O)[C@H](CC(C)C)NC(=O)[C@H](Cc1c[nH]cn1)NC(=O)CNC(=O)[C@@H](NC(=O)[C@H](C)NC(=O)[C@H](Cc1c[nH]c2ccccc12)NC(=O)[C@H](CCC(N)=O)NC(=O)[C@@H](Cc1ccccc1)NC(=O)CCCCCNC(=O)CN1CCN(CC(=O)O)CCN(CC(=O)O)CCN(CC(=O)O)CC1)C(C)C [indium-111 labelled] | Gastrin-releasing peptide receptor (Mus musculus, UniProt P21729) | biodistribution | CF-1 mice, pancreas | intravenous, 1 h, added: bombesin 100 µg, blocking | tissue uptake | 0.2 ± 0.01 %ID/g |
| CCCC[C@H](NC(=O)CNC(=O)CNC(=O)c1ccc(NN)nc1)C(=O)N[C@H]1CC(=O)NCCCC[C@@H](C(N)=O)NC(=O)[C@H](Cc2c[nH]c3ccccc23)NC(=O)[C@H](CCCNC(=N)N)NC(=O)[C@@H](Cc2ccccc2)NC(=O)[C@H](Cc2c[nH]cn2)NC1=O [technetium-99m labelled] |  |  | C57 mouse, B16/F1 melanoma-bearing, bone | intravenous, 24 h | tissue uptake | 0.09 ± 0.03 %ID/g |
| N=C(N)NCCC[C@@H]1NC(=O)[C@H](CCCCNC(=O)CCOCCOCCOCCOCCNC(=O)CN2CCN(CC(=O)O)CCN(CC(=O)O)CCN(CC(=O)O)CC2)NC(=O)[C@@H](Cc2ccccc2)NC(=O)[C@H](CC(=O)O)NC(=O)CNC1=O [indium-111 labelled] |  |  | female athymic nude mice, lungs | intravenous, 3 µCi, 72 h, U-87 MG glioma xenograft | tissue uptake | 0.16 ± 0.03 %ID/g |

Some of these lines once more:
| SMILES | tested on | assay | system | setting | quantity | value |
| --- | --- | --- | --- | --- | --- | --- |
| C[C@H](NC(=O)[C@H](CCC(N)=O)NC(=O)[C@H](C)NC(=O)[C@H](CCCCN)NC(=O)[C@H](CCC(N)=O)NC(=O)[C@H](C)NC(=O)[C@H](CCCCN)NC(=O)[C@H](CCC(N)=O)NC(=O)[C@H](C)NC(=O)[C@H](CCC(N)=O)NC(=O)[C@H](CCCCN)NC(=O)[C@H](C)NC(=O)[C@H](CCC(N)=O)NC(=O)[C@H](CCCCN)NC(=O)[C@H](C)NC(=O)[C@H](CCC(N)=O)NC(=O)[C@H](C)NC(=O)[C@H](CCCCN)NC(=O)[C@H](CCC(N)=O)NC(=O)[C@H](C)NC(=O)[C@H](CCCCN)NC(=O)[C@H](CO)NC(=O)[C@H](Cc1ccc(O)cc1)NC(=O)CNC(=O)CNC(=O)CN)C(=O)N[C@@H](CCCCN)C(=O)N[C@@H](CCC(N)=O)C(=O)N[C@@H](C)C(=O)N[C@@H](CCCCN)C(=O)N[C@@H](CCC(N)=O)C(=O)O |  | binding, SPR two-state model | rVλ6Wil fibrils | 300 nM | ka2 | 0.0315 s⁻¹ |
